Published values pooled from the literature.
Each line is one published result; not all experiments were run side by side. Several values in a cell are separate wells, animals, samples, runs or records. ± marks the error that the study gave.
Cell line: HeLa

SMILES | assay | conditions | quantity | result
CC(C)=CCc1c(O)cc2c(c1O)C(=O)CC(c1ccc(O)cc1)O2 (centres unmarked) | cell growth or viability, MTT | 0.781 µM, 48 h | inhibition | 1.37%
Cc1ccc2c(Br)cc(Br)c([O-])c2n1.Cc1ccc2c(Br)cc(Br)c([O-])c2n1.[Co+2].c1cnc2c(c1)c1nccnc1c1cccnc12 | cell growth or viability, MTT | 48 h | IC50 | 5.28 µM
COC1CN([C@H]2CC[C@H]([C@@H](C)n3c(C)c(C(=O)NCc4c(SC)cc(C)[nH]c4=O)c4ccccc43)CC2)C1 | histone methylation reduction, AlphaLISA, measured: H3K27me3 | 72 h | EC50 | 0.002 µM
CC(=O)N[C@H]1CSCC(c2nnc(-c3ccccc3)nn2)CSC[C@@H](C(N)=O)NC(=O)[C@@H](Cc2ccccc2)NC(=O)[C@H](CC(=O)O)NC(=O)CNC(=O)[C@H](CCCNC(=N)N)NC1=O (some centres unmarked) | cell growth or viability, CCK-8 | 72 h | IC50 | > 10 µM
CNC(=S)NCCCC[C@H](NC(=O)CCc1ccccc1)C(=O)N[C@@H](CCCNC(=N)N)C(=O)N[C@@H](CC1CCCCC1)C(=O)N[C@H](CCCCN)C(=O)N[C@@H](CC1CCCCC1)C(=O)N[C@H](CCCNC(=N)N)C(=O)N[C@@H](CC1CCCCC1)C(N)=O | cell growth or viability, MTT | 72 h | EC50 | 14.1 µM
Cc1cc(Oc2nc(N3CC[C@@H](c4ccncc4)C3)ncc2F)[nH]n1 | cell proliferation |  | IC50 | > 100 µM
Cc1c(Cl)c(=O)oc2cc(OCCCCCC[Se]C#N)ccc12 | cell growth or viability, SRB |  | GI50 | 9.8 µM
C[C@@H](N)[C@H](O)CCCCCCCC(=O)CCCCCCCCCCCCCC[C@@H](O[C@@H]1O[C@H](CO)[C@H](O)[C@H](O)[C@H]1O)[C@H](N)CO | cytotoxicity | concentration not given | growth inhibition | 99 ± 0.05%
COC(=O)[C@@H](NC(=O)[C@@H](NC(=O)[C@@H](NC(=O)[C@@H]1CCCN1C(=O)[C@H](C)NC(=O)OC(C)(C)C)C(C)C)C(C)C)C(C)C | cell growth or viability, SRB |  | IC50 | 3.29 µM and 4.21 µM and 3.97 µM
CC[C@H](C)[C@@H]([C@@H](CC(=O)N1CCC[C@H]1[C@H](OC)[C@@H](C)C(=O)N[C@H](C)[C@@H](O)c1ccccc1)OC)N(C)C(=O)[C@@H](NC(=O)[C@@H](NC)C(C)C)C(C)C | cell proliferation, MTT | without transthyretin | IC50 | 0.0013 µM
Cc1ccc2c(Cl)cc(Cl)c([O-])c2n1.Cc1ccc2c(Cl)cc(Cl)c([O-])c2n1.[Co+2].c1cnc2c(c1)c1nccnc1c1cccnc12 | cell growth or viability, MTT | 48 h | IC50 | 0.1 µM
CC(N)C(O)CCCCCCCCCCCCCCC(=O)CCCCCCCC(O)C(C)N (centres unmarked) | cell growth or viability |  | IC50 | > 50 µM
NC(=O)c1cccc2c3c([nH]c12)CCC(N)C3 (centres unmarked) | cell growth or viability |  | IC50 | 0.15 µM
COC(=O)[C@H](C(C)C)N(C)C(=O)[C@H](C(C)C)N(C)C(=O)[C@@H]1CCCN1C(=O)[C@H](C)N(C)C(=O)OC(C)(C)C | cell growth or viability, SRB |  | IC50 | 24.6 µM and 20.8 µM and 23.3 µM
